Results collected from several papers.
Numbered parts are unrelated; each lists some results of a single study. Substitutions count along the parent as printed.
Chain of UniProt Q96RR4 (whole entry, looked up): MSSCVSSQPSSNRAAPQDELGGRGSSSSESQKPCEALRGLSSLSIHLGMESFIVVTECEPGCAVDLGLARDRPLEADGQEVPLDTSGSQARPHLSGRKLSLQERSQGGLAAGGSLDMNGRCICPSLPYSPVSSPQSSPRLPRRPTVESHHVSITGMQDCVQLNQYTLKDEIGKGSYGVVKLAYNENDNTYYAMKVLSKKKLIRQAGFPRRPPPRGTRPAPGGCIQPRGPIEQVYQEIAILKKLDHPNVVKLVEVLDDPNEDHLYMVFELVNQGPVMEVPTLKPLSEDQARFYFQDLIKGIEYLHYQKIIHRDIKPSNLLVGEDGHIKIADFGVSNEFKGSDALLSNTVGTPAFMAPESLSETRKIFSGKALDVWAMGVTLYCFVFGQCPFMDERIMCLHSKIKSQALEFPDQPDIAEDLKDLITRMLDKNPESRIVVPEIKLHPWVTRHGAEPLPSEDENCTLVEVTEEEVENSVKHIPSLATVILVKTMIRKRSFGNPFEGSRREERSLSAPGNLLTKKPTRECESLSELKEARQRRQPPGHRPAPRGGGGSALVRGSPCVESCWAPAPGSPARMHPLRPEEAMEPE

Sample 1
Target: UDP-N-acetylglucosamine--peptide N-acetylglucosaminyltransferase 110 kDa subunit (OGT, Homo sapiens, UniProt O15294)
Observed: phage display binding
Technique: phage display panning NGS
Molecule type: peptide
Baseline: OGT-panned over input library
Construct (O15294 1-1046): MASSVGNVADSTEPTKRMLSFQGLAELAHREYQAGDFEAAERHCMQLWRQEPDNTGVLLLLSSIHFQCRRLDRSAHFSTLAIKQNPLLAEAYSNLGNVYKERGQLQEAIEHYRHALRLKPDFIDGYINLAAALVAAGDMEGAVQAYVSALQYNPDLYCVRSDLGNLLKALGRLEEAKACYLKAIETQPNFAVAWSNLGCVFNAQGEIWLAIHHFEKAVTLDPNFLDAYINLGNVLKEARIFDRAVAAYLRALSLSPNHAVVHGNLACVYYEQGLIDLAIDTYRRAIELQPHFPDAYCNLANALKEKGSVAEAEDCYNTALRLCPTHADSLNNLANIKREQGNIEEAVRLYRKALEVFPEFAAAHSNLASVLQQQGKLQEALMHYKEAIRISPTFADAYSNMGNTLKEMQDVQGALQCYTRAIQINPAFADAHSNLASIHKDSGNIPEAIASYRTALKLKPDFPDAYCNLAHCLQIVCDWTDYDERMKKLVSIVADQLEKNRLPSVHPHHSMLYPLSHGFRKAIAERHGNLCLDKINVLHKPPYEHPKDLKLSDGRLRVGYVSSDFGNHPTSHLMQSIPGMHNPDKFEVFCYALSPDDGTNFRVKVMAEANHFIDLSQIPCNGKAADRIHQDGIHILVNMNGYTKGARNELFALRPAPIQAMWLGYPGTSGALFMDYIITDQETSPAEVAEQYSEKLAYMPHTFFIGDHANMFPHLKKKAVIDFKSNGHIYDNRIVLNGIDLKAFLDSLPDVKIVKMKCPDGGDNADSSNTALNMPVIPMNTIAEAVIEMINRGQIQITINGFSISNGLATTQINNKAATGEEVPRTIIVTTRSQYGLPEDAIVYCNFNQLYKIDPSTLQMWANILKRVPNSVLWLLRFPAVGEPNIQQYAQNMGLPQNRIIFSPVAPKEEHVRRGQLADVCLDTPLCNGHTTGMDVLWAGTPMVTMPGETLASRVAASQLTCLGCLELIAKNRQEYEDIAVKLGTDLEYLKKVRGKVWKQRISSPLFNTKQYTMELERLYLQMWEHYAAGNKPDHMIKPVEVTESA
For `SYFPVYQIQSFYPVT`, “log2 fold enrichment” read 3.31.
`RELNPVYMIDYTMAV` — result for “log2 fold enrichment”: 2.66.
For `QQGFAPQYQILIEWE`, “log2 fold enrichment” read 3.27.
Under “log2 fold enrichment”, `AFVPPWAPMYQIVMG` is recorded as 3.08.
Under “log2 fold enrichment”, `RFFQPAYQIMPQSYR` is recorded as 2.09.
`DHSLPTTHIHTHHDI` — result for “log2 fold enrichment”: 2.57.
Under “log2 fold enrichment”, `TWRVHYPFHTHNYEI` is recorded as 3.7.
Under “log2 fold enrichment”, `TMRHTHDWIWQHGVQ` is recorded as 3.44.
`HGTHTAGAAPHILHH`: “log2 fold enrichment” 3.05.
`NFLPQYQITAGAYET`: “log2 fold enrichment” 3.71.
Under “log2 fold enrichment”, `YQAVPRFHVEHTHHD` is recorded as 3.19.
Under “log2 fold enrichment”, `ASPSYVPHYQMVYKI` is recorded as 3.75.
Under “log2 fold enrichment”, `SYIPGRVFPPQYQIT` is recorded as 1.72.
`HSDPTGYLHHHHFL` — result for “log2 fold enrichment”: 2.13.
For `TVWPHHSPHHDYDT`, “log2 fold enrichment” read 2.91.
`RHDPMSFQPVYQIKY` — result for “log2 fold enrichment”: 6.1.
Under “log2 fold enrichment”, `QWHPTDHHQWRVHDH` is recorded as 3.38.
`HIDKHFKHEQYQHDH`: “log2 fold enrichment” 3.15.
`HDSNWWTDHTWKHH` — result for “log2 fold enrichment”: 2.28.
For `TWRVPHLPPRYHEEV`, “log2 fold enrichment” read 2.71.
For `VQQQFWPMYEIEYDK`, “log2 fold enrichment” read 4.21.
`QLYPVDKHHTHHHVT` — result for “log2 fold enrichment”: 3.07.
Under “log2 fold enrichment”, `HFADSRSWHHYSTGH` is recorded as 1.98.
`HTRWHSNRTHEQHHV` — result for “log2 fold enrichment”: 3.28.
`STRWFHPSHYHAMFH` — result for “log2 fold enrichment”: 3.32.

Sample 2
Target: inorganic phosphate, free oxyanion
Technique: microfluidic competitive inhibition
Sample: in vitro, cell-free expressed
Tested at: not given
Setting: derived from inhibition constants, unchanged parent 615000 nM
Reading: lower = stronger binding
Starting sequence: PafA, mature enzyme, eGFP fusion (Elizabethkingia meningoseptica, UniProt Q9KJX5); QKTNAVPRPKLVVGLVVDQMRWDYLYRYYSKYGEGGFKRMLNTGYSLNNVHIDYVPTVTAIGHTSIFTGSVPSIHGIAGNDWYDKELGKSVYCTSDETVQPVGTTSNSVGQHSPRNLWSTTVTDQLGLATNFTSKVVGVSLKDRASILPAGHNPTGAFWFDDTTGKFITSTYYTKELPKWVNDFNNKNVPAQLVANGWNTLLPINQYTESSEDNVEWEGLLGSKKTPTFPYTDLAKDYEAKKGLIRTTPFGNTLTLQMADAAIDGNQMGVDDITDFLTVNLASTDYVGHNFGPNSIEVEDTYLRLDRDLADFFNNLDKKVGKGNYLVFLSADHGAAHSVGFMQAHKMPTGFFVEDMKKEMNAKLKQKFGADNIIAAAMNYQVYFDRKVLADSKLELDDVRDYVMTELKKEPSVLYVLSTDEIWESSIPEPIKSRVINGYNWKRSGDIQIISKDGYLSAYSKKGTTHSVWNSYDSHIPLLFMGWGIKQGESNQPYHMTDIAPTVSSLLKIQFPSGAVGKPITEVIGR
`P430G` — result for “phosphate dissociation constant”: 644 µM.
Under “phosphate dissociation constant”, `H112V` is recorded as 847 µM.
`Q192G` — result for “phosphate dissociation constant”: 556 µM.
Under “phosphate dissociation constant”, `Q206V` is recorded as 651 µM.
`S30G` — result for “phosphate dissociation constant”: 670 µM.
`W82V` — result for “phosphate dissociation constant”: 764 µM.
`T284G` — result for “phosphate dissociation constant”: 427 µM.
For `F368V`, “phosphate dissociation constant” read 665 µM.
Under “phosphate dissociation constant”, `I61V` is recorded as 413 µM.
Under “phosphate dissociation constant”, `K432V` is recorded as 504 µM.
`V12G`: “phosphate dissociation constant” 460 µM.
For `N290V`, “phosphate dissociation constant” read 474 µM.
For `S119G`, “phosphate dissociation constant” read 396 µM.
Under “phosphate dissociation constant”, `V6G` is recorded as 542 µM.
Under “phosphate dissociation constant”, `K187V` is recorded as 635 µM.
`I61G`: “phosphate dissociation constant” 67.9 µM.
For `I245G`, “phosphate dissociation constant” read 299 µM.
Under “phosphate dissociation constant”, `M356G` is recorded as 570 µM.
`S426G`: “phosphate dissociation constant” 457 µM.
Under “phosphate dissociation constant”, `S460V` is recorded as 719 µM.
For `V413G`, “phosphate dissociation constant” read 715 µM.
`K225G`: “phosphate dissociation constant” 620 µM.
`V279A`: “phosphate dissociation constant” 507 µM.
Under “phosphate dissociation constant”, `P230V` is recorded as 567 µM.
For `H495G`, “phosphate dissociation constant” read 522 µM.

Sample 3
Target: Max dimerization protein 1, bHLH-zipper, MAX partner unstated (MXD1, Homo sapiens, UniProt Q05195, residues 56-136)
Technique: protein-binding microarray
Molecule type: double-stranded DNA, one strand shown
Sample: in vitro
Tested at: not given
Setting: k-mer, scored over probes, only values ≥0.25
Reading: higher = stronger binding
Target sequence (chain): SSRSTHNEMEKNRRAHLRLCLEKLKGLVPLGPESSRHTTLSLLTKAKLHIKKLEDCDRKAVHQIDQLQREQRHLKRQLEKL
`CATGTTGA` has an E-score of 0.384.
`ATGCGTGC` has an E-score of 0.349.
`CATGTGCC` has an E-score of 0.447.
`ACGCACAC` gave an E-score of 0.302.
The E-score of `GAACACGC` is reported as 0.388.
`AACCACGT` has an E-score of 0.453.
With `ACATGGCC` the E-score was 0.317.
The E-score of `CCACGGCG` is reported as 0.251.

Single results of other studies
The remaining activity of `COC(=O)[C@]1(O)C[C@@H]2O[C@@]1(C)n1c3ccccc3c3c4c(c5c6ccccc6n2c5c31)C(=O)NC4` is reported as 6.55% (Calcium/calmodulin-dependent protein kinase kinase 2 (CAMKK2, Homo sapiens, UniProt Q96RR4); enzyme activity, inhibitor; 0.5 µM; baseline: control).

For quick reference, copied from above (sample 1):
`RELNPVYMIDYTMAV` — result for “log2 fold enrichment”: 2.66.
For `QQGFAPQYQILIEWE`, “log2 fold enrichment” read 3.27.
Under “log2 fold enrichment”, `AFVPPWAPMYQIVMG` is recorded as 3.08.
Under “log2 fold enrichment”, `RFFQPAYQIMPQSYR` is recorded as 2.09.
`DHSLPTTHIHTHHDI` — result for “log2 fold enrichment”: 2.57.
Under “log2 fold enrichment”, `TWRVHYPFHTHNYEI` is recorded as 3.7.
